{"data": "Published values pooled from the literature", "note": "Numbered parts are unrelated; each lists some results of a single study. Positions count from the first letter of the parent shown."}
{"data": "Sample 1", "target": "RNA binding protein fox-1 homolog 2, RRM domain, GST-SBP tag (RBFOX2, Homo sapiens, UniProt O43251-10, residues 100-194)", "method": "RNA Bind-n-Seq", "molecule type": "RNA", "medium": "in vitro", "tested at": "365 nM", "setting": "natural RNA segment, single round, ends assumed", "relative to": "no-protein control", "reading": "higher = stronger binding", "Residues (chain)": "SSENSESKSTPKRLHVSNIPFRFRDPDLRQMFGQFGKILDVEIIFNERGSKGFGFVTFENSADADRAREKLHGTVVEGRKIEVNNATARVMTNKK"}
{"Strand": "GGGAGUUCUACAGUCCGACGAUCGUUUUCUUGCAUUGAAAGAUAACUGAGUAAUAACCUGUAACUAUUUUUAAAUGGCAUGAAAUUAGGAAACUUUUGUACAUUUUAUAUACAUUUUGAGAUGAACAGAACAAUGGAAUUCUCGGGUGCCAA", "RBNS enrichment (R)": 0.777}
{"Strand": "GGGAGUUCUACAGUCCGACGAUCUAUUUAAAGUUAGCUUCUUUCCACUUCUGUGUGUGCUUGUGUGAUUUCAUUGUUUUAAUCAAGGGCUUAAGGUGUCCUCAUUCUUGGACAUGAGAUGUAUUUAAGGAAAGUGGAAUUCUCGGGUGCCAA", "RBNS enrichment (R)": 1.21}
{"Strand": "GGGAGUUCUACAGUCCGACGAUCCCCCGAUAUGCCCCGGCACUGAAGUCGGGACACAAUCAGCUUUAACCAAUGGAUGAGGGGGGUGGCCACAGGAGAUGGGGAGAGGAGUCUGAACUAAACCCCUGGCUUUUUGGAAUUCUCGGGUGCCAA", "RBNS enrichment (R)": 0.648}
{"Strand": "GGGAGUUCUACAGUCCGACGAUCUGCCAUCACGCAUUUAAGACAGGAUUGGACUGUCAUCUCGCAUCAGAAACCGUUACAAUUUCCUGUUGCUGUACAGCCUCUUCUGAACUCUCUUCUCUCUUUGGUGUUCAUGGAAUUCUCGGGUGCCAA", "RBNS enrichment (R)": 0.852}
{"Strand": "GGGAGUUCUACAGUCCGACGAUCCCUCCUCCCUGCCAGAUGACUGUCAUUGCCUCCACUCACCCUUCUGCUUGUCACUCGGCAGCUUAGGGCCUCUGCGCAGGAACCUGACUAGGACUAUGACCUCCACGGCGUGGAAUUCUCGGGUGCCAA", "RBNS enrichment (R)": 0.602}
{"Strand": "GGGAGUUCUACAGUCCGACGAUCGUUCCAGUAACCAAGCCAGUCCCCAGGACACUAGUCUACGUUGGCAGGACUUCACAAGUUAAUCAUUCCUUAGGCCUCCCUUGGCCCUUUCAUCCUGGAUUCUUAGGUGGUGGAAUUCUCGGGUGCCAA", "RBNS enrichment (R)": 0.565}
{"Strand": "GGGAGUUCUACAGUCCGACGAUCAAACAAGAGAAAAGAAAAAUCAAUUAGAUCUAAACAGUUAUUUCUGUUUCCUAUUUAAUACAGCUGAAGUCAAAAUAUGUAAGAACACAUUUUAAAUACUCUACUUACAGUGGAAUUCUCGGGUGCCAA", "RBNS enrichment (R)": 0.51}
{"Strand": "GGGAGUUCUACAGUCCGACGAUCAUUUUAUCCCUCACCUGUAGCAGCCAGUCCCGUUUCAUUUAGUCAUGUGACCACUCUGUCUUGUGUUUCCACAGCCUGCAAGUCAGUCCAGGAUGCUAACAUCUAAAAAUUGGAAUUCUCGGGUGCCAA", "RBNS enrichment (R)": 0.496}
{"Strand": "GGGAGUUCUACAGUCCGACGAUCCUAGGCUAUGGGACAAUCAUCCCAUUCACCACUUGACAUCCUUGACAUCCUUGACUUUCAUUCCCCCAACCUCCAGCAGGUUGGCCCCAAUCCUCUUCACCUCUGUGUUUUGGAAUUCUCGGGUGCCAA", "RBNS enrichment (R)": 0.429}
{"Strand": "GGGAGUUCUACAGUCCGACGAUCAGGGUAUCUUUUUAUAUCACAGCCUAGGACUCUUCCAUCUUAUAAUUACAAGCUGACAGUGUACAAUGUUCCAACAGAAAUAUUAUCAUAACAUGCCUUUUUUGUAUCAAUGGAAUUCUCGGGUGCCAA", "RBNS enrichment (R)": 0.373}
{"Strand": "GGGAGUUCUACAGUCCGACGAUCUUGGUUUGGUUCAGCAGUCAGCAGUUACAUACAUAACACAACCCGCAAGGACAGUGAAUCCGCUCCUGUUGCAGAGCAAUUUCCAAAAAGACGGCAAAGACUACUACUAUUGGAAUUCUCGGGUGCCAA", "RBNS enrichment (R)": 0.253}
{"Strand": "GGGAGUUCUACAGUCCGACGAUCUGCAUGCACAUGCUAUGUAUUGGGUCCCUCCAAGGAUGAACCCUCUCUUUGGCUUAGAAGGCACUCAGAGAAUAUGUGUUAUUCGUGCUCACGGAAAGUUUCUUACUCAUUGGAAUUCUCGGGUGCCAA", "RBNS enrichment (R)": 4.32}
{"data": "Sample 2", "target": "Sal-like protein 4, full length isoform B (SALL4, Homo sapiens, UniProt Q9UJQ4-2, residues 1-616)", "method": "universal PBM", "molecule type": "double-stranded DNA, one strand shown", "medium": "in vitro", "tested at": "not given", "setting": "8-mer, flanks averaged, mean of replicates", "reading": "higher = stronger binding"}
{"Strand": "ACCCTTCC", "E-score": -0.0975}
{"Strand": "CGACCAGA", "E-score": -0.145}
{"Strand": "ACTAATCC", "E-score": 0.0842}
{"Strand": "GGGGACAC", "E-score": -0.238}
{"Strand": "AATAGATG", "E-score": 0.142}
{"Strand": "GATACCGC", "E-score": -0.0805}
{"Strand": "ATTCCTAG", "E-score": 0.0908}
{"Strand": "CCCTAAAG", "E-score": -0.0499}
{"Strand": "ATGCGTCG", "E-score": -0.0469}
{"Strand": "CTACGCAG", "E-score": -0.125}
{"Strand": "CTAACCAC", "E-score": -0.0503}
{"Strand": "ATAAGATC", "E-score": 0.12}
{"Strand": "GAAGGGTC", "E-score": -0.229}
{"Strand": "ATCAAGCC", "E-score": -0.0861}
{"Strand": "CACGGATC", "E-score": -0.216}
{"Strand": "GGAAGAGA", "E-score": 0.0385}
{"Strand": "AACGCACT", "E-score": 0.0351}
{"Strand": "AGGTAATA", "E-score": 0.291}
{"Strand": "CTAAGTGC", "E-score": -0.089}
{"Strand": "CGTCCCAC", "E-score": -0.136}
{"Strand": "CTCATAGC", "E-score": -0.0435}
{"Strand": "CCGTCGAG", "E-score": -0.205}
{"Strand": "AAAAACCC", "E-score": -0.0545}
{"Strand": "AGCTCATA", "E-score": 0.218}
{"Strand": "AAGTTGTA", "E-score": 0.195}
{"data": "Sample 3", "target": "CCNE2, cyclin fold, Cln2 fusion (human)", "method": "yeast growth competition, sequencing", "medium": "yeast", "setting": "weak parent motif", "relative to": "not given", "reading": "higher = stronger binding", "starting sequence": "SAMHD1 docking peptide (human); ASKSRVQLFKDDP"}
{"Substitution": "ASKSREQLFKDDP [V6E]", "normalised enrichment score": -0.212}
{"Substitution": "ASKTRVQLFKDDP [S4T]", "normalised enrichment score": 0.217}
{"Substitution": "ASKSRVKLFKDDP [Q7K]", "normalised enrichment score": 0.183}
{"Substitution": "ASKSEVQLFKDDP [R5E]", "normalised enrichment score": -0.195}
{"Substitution": "AMKSRVQLFKDDP [S2M]", "normalised enrichment score": 0.00249}
{"Substitution": "ASKSVVQLFKDDP [R5V]", "normalised enrichment score": 0.0419}
{"Substitution": "ASKSRVDLFKDDP [Q7D]", "normalised enrichment score": -0.124}
{"Substitution": "ASKSRVQLFKDIP [D12I]", "normalised enrichment score": 0.526}
{"Substitution": "ASKSRVQLFKFDP [D11F]", "normalised enrichment score": 0.234}
{"Substitution": "ASKPRVQLFKDDP [S4P]", "normalised enrichment score": 0.0655}
{"Substitution": "ASKSRVQLFADDP [K10A]", "normalised enrichment score": -0.0129}
{"Substitution": "AGKSRVQLFKDDP [S2G]", "normalised enrichment score": 0.125}
{"Substitution": "ASKSYVQLFKDDP [R5Y]", "normalised enrichment score": 0.113}
{"Substitution": "ASKSRRQLFKDDP [V6R]", "normalised enrichment score": 1.68}
{"Substitution": "ASKSRVQLGKDDP [F9G]", "normalised enrichment score": -0.0508}
{"Substitution": "ASKSRVQLFKDSP [D12S]", "normalised enrichment score": 0.32}
{"Substitution": "ASKSRVQLFKADP [D11A]", "normalised enrichment score": 0.574}
{"Substitution": "ASKSRVELFKDDP [Q7E]", "normalised enrichment score": -0.198}
{"Substitution": "ASKSRVTLFKDDP [Q7T]", "normalised enrichment score": 0.154}
{"Substitution": "ASKSRVQLAKDDP [F9A]", "normalised enrichment score": 0.0861}
{"Substitution": "ASKSRVQLSKDDP [F9S]", "normalised enrichment score": -0.0944}
{"Substitution": "ASKSRVPLFKDDP [Q7P]", "normalised enrichment score": -0.00992}
{"Substitution": "ASKSRVQLFEDDP [K10E]", "normalised enrichment score": -0.126}
{"Substitution": "ASKCRVQLFKDDP [S4C]", "normalised enrichment score": 1.25}
{"Substitution": "ASKSRIQLFKDDP [V6I]", "normalised enrichment score": -0.402}
{"data": "Sample 4", "target": "Histone acetyltransferase KAT6A, winged helix 2, GST fusion (KAT6A, Homo sapiens, UniProt Q92794, residues 85-181)", "method": "protein binding microarray", "molecule type": "double-stranded DNA, one strand shown", "medium": "in vitro", "tested at": "not given", "setting": "8-mer, flanks averaged, mean of 2 arrays, mostly near background", "relative to": "not given", "reading": "higher = stronger binding", "Target sequence (chain)": "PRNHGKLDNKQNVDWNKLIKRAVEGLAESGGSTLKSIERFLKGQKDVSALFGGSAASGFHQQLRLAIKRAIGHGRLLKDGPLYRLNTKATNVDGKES"}
{"Strand": "AGCTGCAC", "E-score": 0.0114}
{"Strand": "CGATGAGA", "E-score": -0.0194}
{"Strand": "ATTTTATG", "E-score": 0.0539}
{"Strand": "ATTTCCTG", "E-score": 0.161}
{"Strand": "TAAGACCA", "E-score": -0.0556}
{"Strand": "CGAAGGGC", "E-score": 0.14}
{"Strand": "AATTAGTG", "E-score": 0.0429}
{"Strand": "AGTTGAAC", "E-score": -0.0788}
{"Strand": "GCTATATA", "E-score": 0.0124}
{"Strand": "ACGCGTGA", "E-score": 0.0984}
{"Strand": "AAATACGT", "E-score": -0.224}
{"Strand": "ACCCTACT", "E-score": -0.0982}
{"Strand": "CTGGTAAC", "E-score": 0.0762}
{"Strand": "TGGGTAAA", "E-score": -0.0241}
{"Strand": "GTTGTTTA", "E-score": -0.0477}
{"Strand": "TGACGTCA", "E-score": -0.0399}
{"Strand": "TCGTCGCA", "E-score": 0.142}
{"note": "For quick reference, copied from above (sample 2):"}
{"Strand": "AGCTCATA", "E-score": 0.218}
{"Strand": "GAAGGGTC", "E-score": -0.229}
{"Strand": "CGACCAGA", "E-score": -0.145}
{"Strand": "CCCTAAAG", "E-score": -0.0499}
{"Strand": "AATAGATG", "E-score": 0.142}
{"Strand": "CGTCCCAC", "E-score": -0.136}
{"Strand": "CTCATAGC", "E-score": -0.0435}
{"Strand": "CTAACCAC", "E-score": -0.0503}
{"Strand": "CACGGATC", "E-score": -0.216}
{"Strand": "ATGCGTCG", "E-score": -0.0469}
{"Strand": "CCGTCGAG", "E-score": -0.205}
{"Strand": "CTACGCAG", "E-score": -0.125}
